Published values collected from several papers.
Parts stem from different laboratories: compare values within a part only. Positions count from the first letter of the parent shown.

Set 1 — method: RNA Bind-n-Seq; form: RNA; medium: in vitro; concentration: 200 nM; notes: whole 134-nt RNA, ends assumed; added: 150 mM KCl; relative to: input library; reading: higher = stronger binding
Target: Fragile X messenger ribonucleoprotein 1, C-terminal low-complexity region (Fmr1, Mus musculus, UniProt P35922)
Constant ends, left off below: GGGAGUUCUACAGUCCGACGAUC … UGGAAUUCUCGGGUGUCAAGG
Strand | log2 enrichment
CCUGUGCUACACAUCGUAUGUACCGAAUCGGGGCCCCCCGGCCCCCCGGGGCCCCCCGGGAAAGUAUUAUGUUACGCCGUUCGGAUCUGC | -0.388
CACAGAUAACACGCACCCACACAGACACAGAGGGAAGGGGUUGGGAUGGGGACAGGGUGCACAGCAGGGCGGGGUAGGACCCCAGCCCCU | 1.19
AGUCCUGUGCUACACAUCGUAUGUACCGAAUCGGGAAAAGGGGAAAAGGAAAAGGGGAAAGUAUUAUGUUACGCCGUUCGGAUCUGCACU | 0.19
CCUGUGCUACACAUCGUAUGUACCGAAUCGGGGUUUUUUGGUUUUUUGGGGUUUUUUGGGAAAGUAUUAUGUUACGCCGUUCGGAUCUGC | -0.349
UAACUUUAGAGGAGGAUCUGAUGGAUAUGGCAGUGUACGUGGAUUUGGGGAUGGCUAUAAUGGGUAUGGAGGAGGACCUGGAGGUGGCAA | 0.235
CUCAAGUCCUGUGCUACACAUCGUAUGUACCGAAUCGGUGGUGGUUUUUUUGGAAAGUAUUAUGUUACGCCGUUCGGAUCUGCACUUCCA | -0.14
CAAGUCCUGUGCUACACAUCGUAUGUACCGAAUCGGUGGUUUUUUUGGUUUUUGGAAAGUAUUAUGUUACGCCGUUCGGAUCUGCACUUC | -0.559
UAACUUUAGAGGAGGAUCUGAUAGAUAUGGCAGUGGACGUGGAUUUGGGGAUGGCUAUAAUGGGUAUGGAGGAGGACCUGGAGGUGGCAA | 0.216

Set 2 — method: protein-binding microarray; form: double-stranded DNA, one strand shown; medium: in vitro; concentration: 2200 nM top; notes: 60-bp whole probe; added: salmon DNA 0.4 mg/ml; relative to: random background probes; reading: higher = stronger binding; constant ends, left off below: GCCTAGCAC … GTCTTGATTCGCTTGACGCTGCTG
Target: Interferon regulatory factor 7, full length, phosphomimetic (IRF7, Homo sapiens, UniProt Q92985, residues 1-503, S471D/S472D/S475D/S476D/S477D/S483D/S484D/S487D)
UniProt Q92985, sequence (whole entry, unmodified, looked up): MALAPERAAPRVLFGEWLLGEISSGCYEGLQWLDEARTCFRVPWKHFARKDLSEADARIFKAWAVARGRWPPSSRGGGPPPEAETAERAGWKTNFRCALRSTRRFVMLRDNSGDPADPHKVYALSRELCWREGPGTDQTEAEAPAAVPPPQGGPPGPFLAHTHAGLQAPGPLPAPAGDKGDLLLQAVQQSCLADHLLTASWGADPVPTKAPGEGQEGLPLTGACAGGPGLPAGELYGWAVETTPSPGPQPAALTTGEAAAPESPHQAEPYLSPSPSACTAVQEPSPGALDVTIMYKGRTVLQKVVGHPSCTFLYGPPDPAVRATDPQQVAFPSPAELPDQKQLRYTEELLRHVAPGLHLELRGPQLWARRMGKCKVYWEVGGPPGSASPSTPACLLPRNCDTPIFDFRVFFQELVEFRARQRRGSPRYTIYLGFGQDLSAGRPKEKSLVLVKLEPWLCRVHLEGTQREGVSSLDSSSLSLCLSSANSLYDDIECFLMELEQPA
Strand | fitted relative affinity [z-score]
TTAGGTATCGACTATCCGTTAGTGCTA | 0.546
TTAGATATCAGTCTCGAGTAGTGCTAG | 0.0666
TCATCCTTTGCTTTCTCACTGTGCTAG | 2.85
TTAAGTTTCGGGTTTCGGTTAGTGCTA | 12.4
CACGGTATCGGACTGGGGACGTGCTAG | -0.18
TTAGATATCAGACTGGATTAGTGCTAG | -0.396
TTAGATATCAGTTTCGATTAGTGCTAG | 5.57
GGCGGACTGCTACTGCTGACGTGCTAG | -0.91
TTAGATTTCACTTCCGATTAGTGCTAG | 2.98
GACGATCTCAGAGTGGAGACGTGCTAG | -0.336

Set 3 — target: CCND2, cyclin fold, Cln2 fusion (human); method: yeast growth competition, sequencing; medium: yeast; notes: weak parent motif; relative to: not given; reading: higher = stronger binding
Parent: CDC6 docking peptide (human); TLKGRRLVFDNQL
Variant | normalised enrichment score
TLKGRSLVFDNQL [R6S] | -0.148
TLKGRKLVFDNQL [R6K] | 0.0898
TLKGRRLVFDCQL [N11C] | 0.524
TLKGRRLVFMNQL [D10M] | 0.592
TLKGRRLVFRNQL [D10R] | 0.272
WLKGRRLVFDNQL [T1W] | 0.368
TLKGRRLCFDNQL [V8C] | 0.652

Other studies, line by line
Molecule | target | assay | test system | setting | how to read | quantity | result
PhoQ, residues 284 288 289 292 302 303 GNNTDL | PhoP, residues 12 14 15 18 19 AWHSL (Escherichia coli, UniProt P23836) | Sort-seq, item: YFP reporter | E. coli | PhoQ-PhoP variant library, added: 10 µM Mg2+ | relative to: high Mg2+ state, higher = stronger signaling | fold induction | 0.544

Repeated from above (set 1):
Strand | log2 enrichment
CAAGUCCUGUGCUACACAUCGUAUGUACCGAAUCGGUGGUUUUUUUGGUUUUUGGAAAGUAUUAUGUUACGCCGUUCGGAUCUGCACUUC | -0.559
CCUGUGCUACACAUCGUAUGUACCGAAUCGGGGCCCCCCGGCCCCCCGGGGCCCCCCGGGAAAGUAUUAUGUUACGCCGUUCGGAUCUGC | -0.388
